{"data": "Experimental data pooled from the literature", "note": "Compare with care: the assays were run in different laboratories. Several values in a cell are separate wells, animals, samples, runs or records. ± gives the spread as reported."}
{"Compound": "NC[C@@]1(CC(=O)O)[C@@H]2CC[C@H]3C[C@@H]2[C@@H]1C3", "test system": "humans with normal renal function, urine", "conditions": "oral, 20 mg single dose", "quantity": "cumulative urinary excretion", "value": "14 ± 1.21 mg"}
{"Compound": "CCCCN(Cc1c(-c2ccccn2)nc2ccc(C)cn12)c1ccc(F)cc1", "test system": "peritoneal macrophages, Swiss mice", "conditions": "5 days, 5% fetal calf serum", "quantity": "CC50", "value": "31.6 µM"}
{"Compound": "COc1cc(C(=O)N2CCC3(CC2)CC(=O)c2c(cnn2C(C)C)C3)cc(-c2ccc(C(=O)O)cc2)n1", "assay": "measured: total cholesterol", "test system": "human, fasting serum", "conditions": "10 mg every 12 h, day 13, adjusted geometric mean", "scale": "reference: baseline and placebo", "quantity": "placebo-adjusted change from baseline", "value": "-1.3%"}
{"Compound": "CC(C)C(=O)O[C@H]1[C@H](C)OC(=O)[C@@H]1Cc1ccccc1", "test system": "Staffordshire loam sediment, aerobic dark", "conditions": "20 °C", "quantity": "DT50 whole system", "value": "0.58 days"}
{"Compound": "CC[C@H](C)CCCCC(=O)N[C@@H](CCN)C(=O)N[C@H](C(=O)N[C@@H](CCN)C(=O)N[C@H]1CCNC(=O)[C@H]([C@@H](C)O)NC(=O)[C@H](CCN)NC(=O)[C@H](CCN)NC(=O)[C@H](CC(C)C)NC(=O)[C@@H](Cc2ccccc2)NC(=O)[C@H](CCN)NC1=O)[C@@H](C)O", "assay": "measured: gastrointestinal disorders", "test system": "long-term IHD patients", "conditions": "intravenous, 0.75 mg/kg", "quantity": "adverse event incidence", "value": "100%"}
{"Compound": "Cc1ccc([C@@H]2O[C@H](CO)[C@@H](O)[C@H](O)[C@H]2O)cc1Cc1ccc(-c2ccc(F)cc2)s1", "test system": "Japanese type 2 diabetes patients", "conditions": "25 mg, day 2, 24 h urine collection", "scale": "reference: baseline", "quantity": "urinary potassium excretion change", "value": "-9.47 mEq"}
{"Compound": "CNC(=O)c1ccc(-c2cnc3ncc(Cc4ccc5ncccc5c4)n3n2)cc1F", "test system": "Japanese patients", "conditions": "oral, 400 mg twice daily, any grade", "quantity": "Dizziness patients", "value": "1%"}
{"Compound": "CC(C)n1c(Nc2cccnc2)nc2cnc(Nc3ccc(N4CCN(C)CC4)cc3)nc21", "assay": "measured: alanine aminotransferase increased", "test system": "healthy male subjects", "conditions": "oral, 100 mg, study, added: itraconazole", "quantity": "subjects with adverse event", "value": "7.1%"}
{"Compound": "Cc1cccc(CNC(=O)c2cn(CCNC(=O)c3ccccc3Sc3c([N+](=O)[O-])ncn3C)c3cc4c(cc3c2=O)OC(F)(F)O4)n1", "test system": "Sprague-Dawley rat, male, plasma", "conditions": "intramuscular, 3 mg/kg of parent compound", "quantity": "AUC(0-t)", "value": "0.164 ± 0.0577 µg·h/mL"}
{"Compound": "CC(C)(C(=O)N1CCOc2c(C#N)cncc2C1)C(F)F", "test system": "healthy humans, both sexes, plasma", "conditions": "oral, 20 mg single dose, 2-fold dose increase", "scale": "reference: 20 mg over 10 mg", "quantity": "AUClast dose proportionality ratio", "value": 2.11}
{"Compound": "Cc1nc(-c2ccc(OCC(C)C)c(C#N)c2)sc1C(=O)O", "test system": "healthy Chinese subjects", "conditions": "oral, 40 mg single, fed", "quantity": "participants with AEs", "value": "25%"}
{"Compound": "CCN1/C(=C/C(C)=O)Sc2ccc(F)cc21", "test system": "cynomolgus monkey", "conditions": "oral, 100 mg/kg, 4 h post-dose", "quantity": "QRS duration", "value": "36 ± 1 ms"}
{"Compound": "CNCc1ccc(-c2[nH]c3cc(F)cc4c3c2CCNC4=O)cc1", "test system": "patients", "conditions": "oral, 480 mg twice daily, all grades", "quantity": "any adverse event incidence", "value": "88.9%"}
{"Compound": "CCO", "test system": "human", "conditions": "concentration not given, treatment-emergent adverse event", "quantity": "heart rate increased", "value": "11.1%"}
{"Compound": "COc1ccc2c3c([nH]c2c1)[C@H](CC(C)C)N1C(=O)[C@H](CC(=O)NC(C)C)NC(=O)[C@@H]1C3", "test system": "wild-type mouse", "conditions": "oral, 100 mg/kg daily, 23 days", "quantity": "liver to body weight ratio", "value": "5.02% and 4.98%"}
{"Compound": "CCCCCN(C)CCC(O)(P(=O)(O)O)P(=O)(O)OP(=O)(O)OC[C@H]1O[C@@H](n2ccc(N)nc2=O)C(F)(F)[C@@H]1O (stereo partly drawn)", "test system": "aqueous buffer", "conditions": "concentration not given, pH 2.7, 22 °C, added: 2.7 mM TFA", "quantity": "hydrolysis rate", "value": "0.025 h⁻¹"}
{"Compound": "Cc1cc(C)c(CNC(=O)c2cc(Cl)c3c(c2C)O[C@@](C)([C@H]2CC[C@H](N(C)C)CC2)O3)c(=O)[nH]1", "assay": "LC-MS/MS", "test system": "human male", "conditions": "oral, dose not given, added: fluconazole", "scale": "reference: with fluconazole over alone", "quantity": "AUClast fold increase", "value": "~1.6 fold"}
{"Compound": "N#C/N=S(\\c1ccc(C(F)(F)F)cc1)C1CC1 (stereo not drawn)", "test system": "human liver microsomes", "scale": "reference: hepatic blood flow", "quantity": "metabolic stability", "value": "< 23%"}
{"note": "Excerpt of the above:"}
{"Compound": "CNCc1ccc(-c2[nH]c3cc(F)cc4c3c2CCNC4=O)cc1", "test system": "patients", "conditions": "oral, 480 mg twice daily, all grades", "quantity": "any adverse event incidence", "value": "88.9%"}
{"Compound": "CCO", "test system": "human", "conditions": "concentration not given, treatment-emergent adverse event", "quantity": "heart rate increased", "value": "11.1%"}
{"Compound": "COc1ccc2c3c([nH]c2c1)[C@H](CC(C)C)N1C(=O)[C@H](CC(=O)NC(C)C)NC(=O)[C@@H]1C3", "test system": "wild-type mouse", "conditions": "oral, 100 mg/kg daily, 23 days", "quantity": "liver to body weight ratio", "value": "5.02% and 4.98%"}
